Measured values of several laboratories.
Protocols differ between the studies behind these lines. ± gives the spread as reported.
Method: steady-state kinetics
B1: msrA (Clostridium oremlandii, UniProt A8MI53); chain MDTNQKLSIAVFALGUFWGPDAQFGSIKGVVSTRVGYAGGTTNNPSYYNLGDHSESIEIQYDANVITYGELLNIFWNLHNPVYETTNRQYMSRIFYLDDGQKSEALEMKRQIEAANGEKIYTEIVPLENFYLAEGYHQKYYLQNTTKLYQTLKAIYGGFGNLVRSTLAARMNGYIAGNLSIASLKEEMDLVELPEDQYEKVLSIVEEIK
B2: CstB (Staphylococcus aureus, UniProt G5ELA4); chain MFFKQFYDNHLSQASYLVGCQRTGEAIIIDPVRDLSKYIEVADSEGLTITQATETHIHADFASGIRDVAKRLNANIYVSGEGEDALGYKNMPSKTQFVKHGDIIQVGNVKLEVLHTPGHTPESISFLLTDLGGGSSVPMGLFSGDFIFVGDIGRPDLLEKSVQIKGSTEISAKQMYESVQNIKNLPDYVQIWPGHGAGSPCGKALGAIPISTIGYEKINNWAFNEIDETKFIESLTSNQPAPPHHFAQMKQVNQFGMNLYQSYDVYPSLDNKRVAFDLRSKEAFHGGHTKGTINIPYNKNFINQIGWYLDFEKDIDLIGDKSTVEKAKHTLQLIGFDKVAGYRLPKSGISTQSVHSADMTGKEEHVLDVRNDEEWNNGHLDQAVNIPHGKLLNENIPFNKEDKIYVHCQSGVRSSIAVGILESKGFENVVNIREGYQDFPESLK
B3: MauG P127V (Paracoccus denitrificans, UniProt Q51658); chain EQARPADDALAALGAQLFVDPALSRNATQSCATCHDPARAFTDPREGKAGLAVSVGDDGQSHGDRNTPTLGYAALVPAFHRDANGKYKGGQFWDGRADDLKQQAGQVMLNPVEMAMPDRAAVAARLRDDPAYRTGFEALFGKGVLDDPERAFDAAAEALAAYQATGEFSPFDSKYDRVMRGEEKFTPLEEFGYTVFITWNCRLCHMQRKQGVAERETFTNFEYHNIGLPVNETAREASGLGADHVDHGLLARPGIEDPAQSGRFKVPSLRNVAVTGPYMHNGVFTDLRTAILFYNKYTSRRPEAKINPETGAPWGEPEVARNLSLAELQSGLMLDDGRVDALVAFLETLTDRRYEPLLEESRAAQKD
B4: MTRR A129T (Homo sapiens, UniProt Q9UBK8); chain MRRFLLLYATQQGQAKAIAEEICEQAVVHGFSADLHCISESDKYDLKTETAPLVVVVSTTGTGDPPDTARKFVKEIQNQTLPVDFFAHLRYGLLGLGDSEYTYFCNGGKIIDKRLQELGARHFYDTGHTDDCVGLELVVEPWIAGLWPALRKHFRSSRGQEEISGALPVASPASSRTDLVKSELLHIESQVELLRFDDSGRKDSEVLKQNAVNSNQSNVVIEDFESSLTRSVPPLSQASLNIPGLPPEYLQVHLQESLGQEESQVSVTSADPVFQVPISKAVQLTTNDAIKTTLLVELDISNTDFSYQPGDAFSVICPNSDSEVQSLLQRLQLEDKREHCVLLKIKADTKKKGATLPQHIPAGCSLQFIFTWCLEIRAIPKKAFLRALVDYTSDSAEKRRLQELCSKQGAADYSRFVRDACACLLDLLLAFPSCQPPLSLLLEHLPKLQPRPYSCASSSLFHPGKLHFVFNIVEFLSTATTEVLRKGVCTGWLALLVASVLQPNIHASHEDSGKALAPKISISPRTTNSFHLPDDPSIPIIMVGPGTGIAPFIGFLQHREKLQEQHPDGNFGAMWLFFGCRHKDRDYLFRKELRHFLKHGILTHLKVSFSRDAPVGEEEAPAKYVQDNIQLHGQQVARILLQENGHIYVCGDAKNMAKDVHDALVQIISKEVGVEKLEAMKTLATLKEEKRYLQDIWS
B5: LYS1 C205S/K99M (Saccharomyces cerevisiae, UniProt P38998); chain MAAVTLHLRAETKPLEARAALTPTTVKKLIAKGFKIYVEDSPQSTFNINEYRQAGAIIVPAGSWKTAPRDRIIIGLKEMPETDTFPLVHEHIQFAHCYMDQAGWQNVLMRFIKGHGTLYDLEFLENDQGRRVAAFGFYAGFAGAALGVRDWAFKQTHSDDEDLPAVSPYPNEKALVKDVTKDYKEALATGARKPTVLIIGALGRSGSGAIDLLHKVGIPDANILKWDIKETSRGGPFDEIPQADIFINCIYLSKPIAPFTNMEKLNNPNRRLRTVVDVSADTTNPHNPIPIYTVATVFNKPTVLVPTTAGPKLSVISIDHLPSLLPREASEFFSHDLLPSLELLPQRKTAPVWVRAKKLFDRHCARVKRSSRL
B6: enzyme D208A (Thermococcus kodakarensis, UniProt Q5JID5); chain MLYVEILGNLPEMARDEVKAMLELGGGEIIGQDYLFLKVDAGEKAFPFLDRLGLAHEYGLLLVEADSVEELLQKAGEVEWPIKGAFKVDTETMANCRHDVLDLPRKLGAVIHAQGFRVNLSKPDTVVRVYCGERLYAGIRLRYFDPKDFEKRKAHHRPFFRPISLHPRVSRALVNLTKATREILDPFMGAGGILIEAGLLGLRVYGVAIRPEMVEGAETNLKHYGVRDYTLKLGDATRLEDLFPDKKFEAVATDPPYGTAATLAGRKRDELYRKALRSIYNVLEDGGRLAIAFPTDFNGKAEAEAVGFRTLGRYYQRVHKSLERYFYVFEK
B7: enzyme E385A (Sinorhizobium meliloti, UniProt Q92UV7); chain MTNAEVTIAVRHEPMRIAGRLVDTDDRVEVRYPWNDTVVGTVPAGRAEHAREAFAIAAAYQPKLTRYERQKILLATAEALAARKEEISDVITLELGISKADSLYEVGRAFDVFTLAGQMCIRDDGEIFSCDLTPHGKARKIFTMREPLTAISAITPFNHPLNMVAHKVAPAIATNNCVVVKPTELTPMTALLLADILYEAGLPPEMLSVVTGWPADIGMEMITNPHVDLVTFTGSVPVGKLIAANAHYKRQVLELGGNDPLIILNDLSDDDLARAADLAVAGATKNSGQRCTAVKRILCQESVADRFVPLVLERAKRLRFGDPMDRSTDLGTVIHEKAAALFEERVMRAAEEGADILYHPGRSGALLPPIVVDRVPHQSDLVLEATFGPIIPIVRVPDDDDATITLSNSTAFGLSSGVCTNDYRRMQKYIAGLKVGTVNIWEVPGYRIEMSPFGGIKDSGNGYKEGVIEAMKSFTNVKTFSLPWP
B8: cyc1 F96Y (Streptomyces coelicolor, UniProt Q9K499); chain MHAFPHGTTATPTAIAVPPSLRLPVIEAAFPRQLHPYWPKLQETTRTWLLEKRLMPADKVEEYADGLCYTDLMAGYYLGAPDEVLQAIADYSAWFYVWDDRHDRDIVHGRAGAWRRLRGLLHTALDSPGDHLHHEDTLVAGFADSVRRLYAFLPATWNARFARHFHTVIEAYDREFHNRTRGIVPGVEEYLELRRLTFAHWIWTDLLEPSSGCELPDAVRKHPAYRRAALLSQEFAAWYNDLCSLPKEIAGDEVHNLGISLITHHSLTLEEAIGEVRRRVEECITEFLAVERDALRFADELADGTVRGKELSGAVRANVGNMRNWFSSVYWFHHESGRYMVDSWDDRSTPPYVNNEAAGEK
B9: protein F222G (Planktothrix agardhii, UniProt F5B6Z0); chain MIVNVIQKDRLKEQKLQFIRNHQQAFDVEPIYPLPLFEDFVTSIEGDCSLEASCKIESDKLIASRFLLFFEDKTQEWQKYLHQSLTFFGLVENRVGVKINYSLLQQFLGSSFDFSKVTVLSAGIDLRNNLAESSLKMHIRIKDYPEKLDKAFALSDGAADGNYLKDFVNLIGFDFYFNGKSEIEIYAEVQEDDFFKPEINNLVWQHFPKTALQPLKASSLFGTGLSKANNNPVLYYHLKNRQDLTNYFKLNDTAQRVHSFYQHQDILPYMWVGTAQKELEKTRIENIRLYYYKSFKMESN
B10: asnB E349Q (Escherichia coli, UniProt P22106); chain CSIFGVFDIKTDAVELRKKALELSRLMRHRGPDWSGIYASDNAILAHERLSIVDVNAGAQPLYNQQKTHVLAVNGEIYNHQALRAEYGDRYQFQTGSDCEVILALYQEKGPEFLDDLQGMFAFALYDSEKDAYLIGRDHLGIIPLYMGYDEHGQLYVASEMKALVPVCRTIKEFPAGSYLWSQDGEIRSYYHRDWFDYDAVKDNVTDKNELRQALEDSVKSHLMSDVPYGVLLSGGLDSSIISAITKKYAARRVEDQERSEAWWPQLHSFAVGLPGSPDLKAAQEVANHLGTVHHEIHFTVQEGLDAIRDVIYHIETYDVTTIRASTPMYLMSRKIKAMGIKMVLSGQGSDEVFGGYLYFHKAPNAKELHEETVRKLLALHMYDCARANKAMSAWGVEARVPFLDKKFLDVAMRINPQDKMCGNGKMEKHILRECFEAYLPASVAWRQKEQFSDGVGYSWIDTLKEVAAQQVSDQQLETARFRFPYNTPTSKEAYLYREIFEELFPLPSAAECVPGGPSVACSSAKAIEWDEAFKKMDDPSGRAVGVHQSAYK
B11: nicotinamidase (Streptococcus pneumoniae, UniProt A0A0H2UR34); chain MTKALISIDYTEDFVADSGKLTAGAPAQAISDAISKVTRLAFERGDYIFFTIDAHEENDCFHPESKLFPPHNLIGTSGRNLYGDLGIFYQEHGSDSRVFWMDKRHYSAFSGTDLDIRLRERRVSTVILTGVLTDICVLHTAIDAYNLGYDIEIVKPAVASIWPENHQFALGHFKNTLGAKLVDENLNELFE
B12: GTPBP3 A322P (Homo sapiens, UniProt Q969Y2); chain TRRSSGAPAPGSGATIFALSSGQGRCGIAVIRTSGPASGHALRILTAPRDLPLARHASLRLLSDPRSGEPLDRALVLWFPGPQSFTGEDCVEFHVHGGPAVVSGVLQALGSVPGLRPAEAGEFTRRAFANGKLNLTEVEGLADLIHAETEAQRRQALRQLDGELGHLCRGWAETLTKALAHVEAYIDFGEDDNLEEGVLEQADIEVRALQVALGAHLRDARRGQRLRSGVHVVVTGPPNAGKSSLVNLLSRKPVSIVSPEPGTTRDVLETPVDLAGFPVLLSDTAGLREGVGPVEQEGVRRPRERLEQADLILAMLDASDLASPSSCNFLATVVASVGAQSPSDSSQRLLLVLNKSDLLSPEGPGPGPDLPPHLLLSCLTGEGLDGLLEALRKELAAVCGDPSTDPPLLTRARHQHHLQGCLDALGHYKQSKDLALAAEALRVARGHLTRLTGGGGTEEILDIIFQDFCVGK
B13: lpxA (Escherichia coli, UniProt P0A722); chain MIDKSAFVHPTAIVEEGASIGANAHIGPFCIVGPHVEIGEGTVLKSHVVVNGHTKIGRDNEIYQFASIGEVNQDLKYAGEPTRVEIGDRNRIRESVTIHRGTVQGGGLTKVGSDNLLMINAHIAHDCTVGNRCILANNATLAGHVSVDDFAIIGGMTAVHQFCIIGAHVMVGGCSGVAQDVPPYVIAQGNHATPFGVNIEGLKRRGFSREAITAIRNAYKLIYRSGKTLDEVKPEIAELAETYPEVKAFTDFFARSTRGLIR
Sequence of UniProt Q8QZR1 (whole entry, looked up): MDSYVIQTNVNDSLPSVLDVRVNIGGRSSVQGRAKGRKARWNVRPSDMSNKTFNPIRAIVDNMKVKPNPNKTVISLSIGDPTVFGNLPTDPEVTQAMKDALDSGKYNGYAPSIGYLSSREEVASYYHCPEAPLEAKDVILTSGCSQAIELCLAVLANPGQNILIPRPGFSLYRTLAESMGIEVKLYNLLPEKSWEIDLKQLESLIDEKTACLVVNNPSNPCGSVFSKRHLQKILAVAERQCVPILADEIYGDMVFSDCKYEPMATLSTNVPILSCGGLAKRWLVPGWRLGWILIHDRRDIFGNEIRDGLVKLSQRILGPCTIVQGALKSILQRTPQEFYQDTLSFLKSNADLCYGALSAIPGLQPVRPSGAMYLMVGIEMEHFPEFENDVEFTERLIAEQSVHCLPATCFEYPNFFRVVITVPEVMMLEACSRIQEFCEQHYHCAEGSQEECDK
Sequence of UniProt Q48662 (whole entry, looked up): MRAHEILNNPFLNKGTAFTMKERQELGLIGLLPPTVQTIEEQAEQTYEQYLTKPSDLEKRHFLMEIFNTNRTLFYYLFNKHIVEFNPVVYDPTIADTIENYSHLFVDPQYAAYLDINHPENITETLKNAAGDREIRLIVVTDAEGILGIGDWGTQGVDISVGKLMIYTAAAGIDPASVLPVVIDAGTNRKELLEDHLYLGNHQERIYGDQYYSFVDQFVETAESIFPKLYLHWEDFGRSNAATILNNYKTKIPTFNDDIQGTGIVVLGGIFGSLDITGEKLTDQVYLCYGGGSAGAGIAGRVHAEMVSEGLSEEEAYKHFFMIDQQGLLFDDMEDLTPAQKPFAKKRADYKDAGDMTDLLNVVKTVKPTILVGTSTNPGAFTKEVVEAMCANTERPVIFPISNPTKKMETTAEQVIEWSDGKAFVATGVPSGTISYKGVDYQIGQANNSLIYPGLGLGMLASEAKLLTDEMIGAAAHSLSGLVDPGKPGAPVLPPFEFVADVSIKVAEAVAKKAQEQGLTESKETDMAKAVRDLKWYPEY
Sequence of UniProt P19337 (whole entry, looked up): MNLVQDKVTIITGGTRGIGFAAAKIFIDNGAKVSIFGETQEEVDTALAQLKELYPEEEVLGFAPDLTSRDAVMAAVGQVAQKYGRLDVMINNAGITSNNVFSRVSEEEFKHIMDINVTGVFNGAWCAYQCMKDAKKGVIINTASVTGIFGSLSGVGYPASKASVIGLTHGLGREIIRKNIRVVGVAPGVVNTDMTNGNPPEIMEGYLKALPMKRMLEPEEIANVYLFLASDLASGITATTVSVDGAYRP

Substance	substrate	pH	temperature	setting	added	kcat [s⁻¹]
enzyme (Phocaeicola vulgatus, UniProt A6KWY5)	O=C(O)[C@@H](O)[C@H](O)[C@H](O)C(=O)CO	pH 7	30 °C	–	–	90 ± 0.6
B1 (msrA)	CN(C)c1ccc(N=Nc2ccc(S(=O)(=O)N[C@@H](CC[S@+](C)[O-])C(=O)O)cc2)cc1	pH 7.5	37 °C	50 mM NaCl, Km above tested range	20 mM DTT reductant	84 ± 5
B2 (CstB)	O=S(O)(O)=S	pH 6	25 °C	–	KCN 50 mM	8.5 ± 0.5
B3 (MauG P127V)	O=C1O[C@H]([C@@H](O)CO)C(O)=C1O	pH 7.5	25 °C	–	H2O2 100 µM	1.12 ± 0.09
B4 (MTRR A129T)	COc1cccc2c1C(=O)c1c(O)c3c(c(O)c1C2=O)C[C@@](O)(C(=O)CO)C[C@@H]3O[C@H]1C[C@H](N)[C@H](O)[C@H](C)O1	pH 7.5	37 °C	substoichiometric FMN	NADPH	0.71 ± 0.051
B5 (LYS1 C205S/K99M)	O=C(O)CCC(=O)C(=O)O	pH 7.2	25 °C	–	NADH and Lys	68 ± 4
enzyme (Lactococcus lactis, UniProt Q48662)	O=C(O)C[C@H](O)C(=O)O	pH 7	30 °C	apparent	–	266 ± 14
B6 (enzyme D208A)	C[S+](CC[C@H](N)C(=O)O)C[C@H]1O[C@@H](n2cnc3c(N)ncnc32)[C@H](O)[C@@H]1O	pH 7.5	50 °C	apparent	–	0.000117 to 0.0005
Tat (Mus musculus, UniProt Q8QZR1)	O=C(O)C(=O)Cc1ccc(O)cc1	pH 7	38 °C	–	PLP	15.8 ± 4.33
B7 (enzyme E385A)	NC(=O)c1ccc[n+]([C@@H]2O[C@H](COP(=O)(O)OP(=O)(O)OC[C@H]3O[C@@H](n4cnc5c(N)ncnc54)[C@H](O)[C@@H]3O)[C@@H](O)[C@H]2O)c1	pH 7.5	30 °C	cofactor varied	–	0.19 ± 0.03
BaiA2 (Clostridium scindens, UniProt P19337)	C[C@H](CCC(=O)SCCNC(=O)CCNC(=O)[C@H](O)C(C)(C)COP(=O)(O)OP(=O)(O)OC[C@H]1O[C@@H](n2cnc3c(N)ncnc32)[C@H](O)[C@@H]1OP(=O)(O)O)[C@H]1CC[C@H]2[C@@H]3[C@H](O)C[C@@H]4CC(=O)CC[C@]4(C)[C@H]3CC[C@]12C	pH 8.7	37 °C	–	NADH	0.167
B8 (cyc1 F96Y)	CC(C)=CCC/C(C)=C/CC/C(C)=C/CO[P@@](=O)(O)OP(=O)(O)O	pH 6.5	30 °C	–	MgCl2 10 mM	0.00019 ± 1e-05
B9 (protein F222G)	CC(C)=CCOP(=O)(O)OP(=O)(O)O	–	–	–	tri-Tyr peptide acceptor	0.0192 ± 0.0015
B10 (asnB E349Q)	NC(=O)CC[C@H](N)C(=O)O	pH 8	37 °C	100 mM NaCl, glutaminase site	MgCl2; no ATP	4 ± 0.5
B11 (nicotinamidase)	NC(=O)c1cccnc1	pH 7.3	–	progress curve analysis	–	2.1 ± 0.1
B12 (GTPBP3 A322P)	Nc1nc2c(ncn2[C@@H]2O[C@H](COP(=O)(O)OP(=O)(O)OP(=O)(O)O)[C@@H](O)[C@H]2O)c(=O)[nH]1	pH 8	37 °C	KCl 300 mM	–	0.0075 ± 0.000833
B13 (lpxA)	CC(=O)N[C@H]1[C@@H](OP(=O)(O)OP(=O)(O)OC[C@H]2O[C@@H](n3ccc(=O)[nH]c3=O)[C@H](O)[C@@H]2O)O[C@H](CO)[C@@H](O)[C@@H]1O	pH 8	25 °C	–	R-3-hydroxymyristoyl-ACP 40 µM	3.6

For quick reference, copied from above:
Substance	substrate	pH	temperature	setting	added	kcat [s⁻¹]
B9 (protein F222G)	CC(C)=CCOP(=O)(O)OP(=O)(O)O	–	–	–	tri-Tyr peptide acceptor	0.0192 ± 0.0015
B11 (nicotinamidase)	NC(=O)c1cccnc1	pH 7.3	–	progress curve analysis	–	2.1 ± 0.1
